# Published values pooled from the literature.
# Each line is one published result; not all experiments were run side by side. Values joined by “and” are separate records of one study, mostly repeats; a detail may differ. Numbers after ± are the reported error.
# U2AF2: U2AF2 148-342 (Homo sapiens, UniProt P26368)
# UniProt P26368, sequence (whole entry, looked up): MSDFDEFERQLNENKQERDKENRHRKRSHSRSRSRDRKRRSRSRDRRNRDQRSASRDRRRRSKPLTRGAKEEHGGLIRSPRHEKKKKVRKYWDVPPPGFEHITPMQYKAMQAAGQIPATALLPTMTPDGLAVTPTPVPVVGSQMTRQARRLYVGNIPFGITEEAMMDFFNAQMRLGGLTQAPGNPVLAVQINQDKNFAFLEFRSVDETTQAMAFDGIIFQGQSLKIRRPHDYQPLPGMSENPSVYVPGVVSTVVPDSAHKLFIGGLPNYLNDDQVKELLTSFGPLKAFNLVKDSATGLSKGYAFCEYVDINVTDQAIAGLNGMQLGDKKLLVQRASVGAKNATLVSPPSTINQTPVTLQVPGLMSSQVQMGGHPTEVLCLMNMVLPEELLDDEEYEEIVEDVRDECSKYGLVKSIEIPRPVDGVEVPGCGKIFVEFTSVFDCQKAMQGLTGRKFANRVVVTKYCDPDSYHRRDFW
# B1: E. coli DnaJ; chain MAKQDYYEILGVSKTAEEREIRKAYKRLAMKYHPDRNQGDKEAEAKFKEIKEAYEVLTDSQKRAAYDQYGHAAFEQGGMGGGGFGGGADFSDIFGDVFGDIFGGGRGRQRAARGADLRYNMELTLEEAVRGVTKEIRIPTLEECDVCHGSGAKPGTQPQTCPTCHGSGQVQMRQGFFAVQQTCPHCQGRGTLIKDPCNKCHGHGRVERSKTLSVKIPAGVDTGDRIRLAGEGEAGEHGAPAGDLYVQVQVKQHPIFEREGNNLYCEVPINFAMAALGGEIEVPTLDGRVKLKVPGETQTGKLFRMRGKGVKSVRGGAQGDLLCRVVVETPVGLNERQKQLLQELQESFGGPTGEHNSPRSKSFFDGVKKFFDDLTR
# B2: histone H1.3 human; sequence looked up; chain SETAPLAPTIPAPAEKTPVKKKAKKAGATAGKRKASGPPVSELITKAVAASKERSGVSLAALKKALAAAGYDVEKNNSRIKLGLKSLVSKGTLVQTKGTGASGSFKLNKKAASGEGKPKAKKAGAAKPRKPAGAAKKPKKVAGAATPKKSIKKTPKKVKKPATAAGTKKVAKSAKKVKTPQPKKAAKSPAKAKAPKPKAAKPKSGKPKVTKAKKAAPKKK
# B3: serpin B4 (human); sequence looked up; chain MNSLSEANTKFMFDLFQQFRKSKENNIFYSPISITSALGMVLLGAKDNTAQQISKVLHFDQVTENTTEKAATYHVDRSGNVHHQFQKLLTEFNKSTDAYELKIANKLFGEKTYQFLQEYLDAIKKFYQTSVESTDFANAPEESRKKINSWVESQTNEKIKNLFPDGTIGNDTTLVLVNAIYFKGQWENKFKKENTKEEKFWPNKNTYKSVQMMRQYNSFNFALLEDVQAKVLEIPYKGKDLSMIVLLPNEIDGLQKLEEKLTAEKLMEWTSLQNMRETCVDLHLPRFKMEESYDLKDTLRTMGMVNIFNGDADLSGMTWSHGLSVSKVLHKAFVEVTEEGVEAAAATAVVVVELSSPSTNEEFCCNHPFLFFIRQNKTNSILFYGRFSSP
# B4: gasdermin-A (human); sequence looked up; chain MTMFENVTRALARQLNPRGDLTPLDSLIDFKRFHPFCLVLRKRKSTLFWGARYVRTDYTLLDVLEPGSSPSDPTDTGNFGFKNMLDTRVEGDVDVPKTVKVKGTAGLSQNSTLEVQTLSVAPKALETVQERKLAADHPFLKEMQDQGENLYVVMEVVETVQEVTLERAGKAEACFSLPFFAPLGLQGSINHKEAVTIPKGCVLAFRVRQLMVKGKDEWDIPHICNDNMQTFPPGEKSGEEKVILIQASDVGDVHEGFRTLKEEVQRETQQVEKLSRVGQSSLLSSLSKLLGKKKELQDLELALEGALDKGHEVTLEALPKDVLLSKEAVGAILYFVGALTELSEAQQKLLVKSMEKKILPVQLKLVESTMEQNFLLDKEGVFPLQPELLSSLGDEELTLTEALVGLSGLEVQRSGPQYMWDPDTLPRLCALYAGLSLLQQLTKAS
# B5: human histidine ammonia-lyase; sequence looked up; chain MPRYTVHVRGEWLAVPCQDAQLTVGWLGREAVRRYIKNKPDNGGFTSVDDAHFLVRRCKGLGLLDNEDRLEVALENNEFVEVVIEGDAMSPDFIPSQPEGVYLYSKYREPEKYIELDGDRLTTEDLVNLGKGRYKIKLTPTAEKRVQKSREVIDSIIKEKTVVYGITTGFGKFARTVIPINKLQELQVNLVRSHSSGVGKPLSPERCRMLLALRINVLAKGYSGISLETLKQVIEMFNASCLPYVPEKGTVGASGDLAPLSHLALGLVGEGKMWSPKSGWADAKYVLEAHGLKPVILKPKEGLALINGTQMITSLGCEAVERASAIARQADIVAALTLEVLKGTTKAFDTDIHALRPHRGQIEVAFRFRSLLDSDHHPSEIAESHRFCDRVQDAYTLRCCPQVHGVVNDTIAFVKNIITTELNSATDNPMVFANRGETVSGGNFHGEYPAKALDYLAIGIHELAAISERRIERLCNPSLSELPAFLVAEGGLNSGFMIAHCTAAALVSENKALCHPSSVDSLSTSAATEDHVSMGGWAARKALRVIEHVEQVLAIELLAACQGIEFLRPLKTTTPLEKVYDLVRSVVRPWIKDRFMAPDIEAAHRLLLEQKVWEVAAPYIEKYRMEHIPESRPLSPTAFSLQFLHKKSTKIPESEDL
# UniProt P13393, sequence (whole entry, looked up): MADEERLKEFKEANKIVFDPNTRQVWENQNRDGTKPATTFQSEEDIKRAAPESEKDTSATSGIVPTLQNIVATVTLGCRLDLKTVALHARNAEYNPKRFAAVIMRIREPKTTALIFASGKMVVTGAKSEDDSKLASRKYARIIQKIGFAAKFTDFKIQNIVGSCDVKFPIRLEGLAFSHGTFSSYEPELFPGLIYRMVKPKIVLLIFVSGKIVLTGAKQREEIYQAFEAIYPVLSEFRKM
Molecule,tested on,test,system,conditions,scale,endpoint,value
SVWLRKETRV,"construct, MBP fusion, human SCRIB, PDZ 3-4",automated holdup,"peptide, crude extract","concentration not given, uncorrected, unit not given","baseline: biotin control resin, higher = stronger binding",binding intensity,0.487
human GFAP,PP6C (human),"co-immunoprecipitation, IP-MS",CYB5R4 knockout cells,concentration not given,baseline: CYB5R4 knockout over parental,log2 fold change,0.33
B1 (E. coli DnaJ),DnaK (Escherichia coli) ATP-bound,"binding, fluorescence polarization",,"10 µM, 30 °C, together with: ATP",,fraction bound,40.3%
B2 (histone H1.3 human),PP6C (human),"co-immunoprecipitation, IP-MS",CYB5R4 knockout cells,concentration not given,baseline: CYB5R4 knockout over parental,log2 fold change,-1.6
GSGAGSETKM,"construct, MBP fusion, human SCRIB, PDZ 3-4",automated holdup,"peptide, crude extract","concentration not given, uncorrected, unit not given","baseline: biotin control resin, higher = stronger binding",binding intensity,0.0778
B3 (serpin B4),PP6C (human),"co-immunoprecipitation, IP-MS",CYB5R4 knockout cells,concentration not given,baseline: CYB5R4 knockout over parental,log2 fold change,0.46
"phosphatidylinositol 3,4,5-trisphosphate",adenosine A2A receptor thermostabilised,equilibrium dialysis LC-MS,,"5 µM, normalised z-score",baseline: no protein,log2 fold change,-0.377
GTTCCTGAAGGGGGGGCGGGGTGGGTATAAAAGGGTCAAGTCAATCGGTCC (dsDNA; 5'-amino-C6 primer),"SPT15 full length assumed (Saccharomyces cerevisiae, UniProt P13393)",array,"double-stranded DNA, one strand shown",TBP alone,,Kd,122.2 ± 0.7 nM
NRVDSKETEC,"construct, MBP fusion, human SCRIB, PDZ 3-4",automated holdup,"peptide, purified PDZ protein","concentration not given, unit not given","baseline: biotin control resin, higher = stronger binding",binding intensity,0.182
B4 (gasdermin-A),PP6C (human),"co-immunoprecipitation, IP-MS",CYB5R4 knockout cells,concentration not given,baseline: CYB5R4 knockout over parental,log2 fold change,-0.15
VVVGAVGVGK,HLA-A*11:01 peptide-β2M single-chain trimer,"western blot, measured: pMHC-I","peptide, 293T cells","24 h, unit not given, together with: 100 µg/mL cycloheximide",baseline: time zero,remaining protein,0.835 and 0.863 and 0.901
SYGRPRVAAAP (phosphorylated),VSR1 N-terminal domain (Arabidopsis thaliana),pull-down,peptide,"concentration not given, pH 7.1",,binding,inhibited
UCUCUUUGA (ssRNA),U2AF2,sequencing of bound RNA,RNA,motif only,,Kd,1460 nM
GSGAGHETIV,"construct, MBP fusion, human SCRIB, PDZ 3-4",automated holdup,"peptide, crude extract","concentration not given, corrected by standard peak, unit not given","baseline: biotin control resin, higher = stronger binding",binding intensity,0.198
human hnRNP K,PP6C (human),"co-immunoprecipitation, IP-MS",CYB5R4 knockout cells,concentration not given,baseline: CYB5R4 knockout over parental,log2 fold change,-0.92
hydroxysafflor yellow A,Nrf2,"Nrf2 induction, inducer",,,baseline: control,fold induction,0.99 fold
B5 (human histidine ammonia-lyase),PP6C (human),"co-immunoprecipitation, IP-MS",CYB5R4 knockout cells,concentration not given,baseline: CYB5R4 knockout over parental,log2 fold change,1.23
VVVGASGVGK,HLA-A*11:01 peptide-β2M single-chain trimer,"western blot, measured: pMHC-I","peptide, 293T cells","48 h, unit not given, together with: 100 µg/mL cycloheximide",baseline: time zero,remaining protein,0.518 and 0.535 and 0.558
GSGAGKETEC,"construct, MBP fusion, human SCRIB, PDZ 3-4",automated holdup,"peptide, crude extract","concentration not given, corrected by standard peak, unit not given","baseline: biotin control resin, higher = stronger binding",binding intensity,0.338
CUUCUUACU (ssRNA),U2AF2,sequencing of bound RNA,RNA,motif only,,Kd,7930 nM
VMRLQSETSV,"construct, MBP fusion, human SCRIB, PDZ 3-4",surface plasmon resonance,peptide,concentration not given,higher = stronger binding,normalised SPR binding response,63.7 normalised RU
colistin,Acinetobacter baumannii,broth microdilution,clinical isolate RKI-No_4/15,,,MIC,≤ 0.5 µg/mL

# Some of these lines once more:
Molecule,tested on,test,system,conditions,scale,endpoint,value
human hnRNP K,PP6C (human),"co-immunoprecipitation, IP-MS",CYB5R4 knockout cells,concentration not given,baseline: CYB5R4 knockout over parental,log2 fold change,-0.92
